Published values from different studies.
Protocols differ between the studies behind these lines. ± gives the spread as reported. In brackets after ≈: the same amount, converted by molar mass.

Compound | assay | test system | conditions | scale | quantity | value
[O-][S+]1CCc2nc(N3CCC(c4ncc(Cl)cn4)CC3)nc(NC3(CO)CCC3)c21 (centres unmarked) | refers to: upper abdominal pain | healthy male humans | 12 mg twice daily | – | adverse event incidence | 0%
Cn1cncc1-c1c(F)cncc1NC(=O)c1c(N)nn2cc(F)cnc12 | – | human patients | oral, 220 mg once daily | – | grade ≥3 platelet decrease incidence | 0%
CO[C@H]1C[C@@H]2CC[C@@H](C)[C@@](O)(O2)C(=O)C(=O)N2CCCC[C@H]2C(=O)O[C@H]([C@H](C)C[C@@H]2CC[C@@H](OC(=O)NCCOCCOCCOCCOCCOCCOCCOCCOCCC(=O)N3CCc4cc(Cn5nc(-c6ccc7oc(N)nc7c6)c6c(N)ncnc65)ccc4C3)[C@H](OC)C2)C[C@@H](O)[C@H](C)/C=C(\C)[C@@H](O)[C@@H](OC)C(=O)[C@H](C)C[C@H](C)/C=C/C=C/C=C/1C | – | patients with advanced solid tumours | intravenous, 1.6 mg/3 mg weekly, any grade | – | incidence of Headache TEAE | 20%
O[C@H]1CCCN[C@@H]1CCCn1cnc2c(Cl)c(Cl)ccc21 | – | healthy CYP2D6 EM and UM, plasma | oral, 150 mg multiple doses | – | AUCtau | 887 ng·h/mL
N[C@@H]1c2ccccc2OC12CCN(c1cnc3c(N4CCCc5ncccc54)n[nH]c3n1)CC2 | – | advanced metastatic solid tumour patients | oral, 100 mg once daily | – | TEAE leading to interruption | 28.6%
CCN1CCN(Cc2ccc(Nc3ncc(F)c(-c4cc(F)c5nc6n(c5c4)[C@H](C)CCC6)n3)nc2)CC1 | Phase Ia dose escalation | patients with advanced solid tumours | dose not given, monotherapy, grade ≥3 | – | blood fibrinogen decreased incidence | 0%
O=C(Nc1ccccc1)C1CCN(C(=O)Oc2cccnc2)CC1 | – | healthy women | oral, 20 mg, 7 days | – | adverse event Pruritus | 7.1%
CC(C)C[C@H](NC(=O)[C@H](CCCCN)NC(=O)OCC1c2ccccc2-c2ccccc21)C(=O)N[C@H](C(=O)N[C@@H](Cc1ccccc1)C(=O)N[C@@H](Cc1ccccc1)C(=O)N[C@@H](CCCCN)C(=O)NCC(=O)N[C@@H](Cc1ccccc1)C(=O)N[C@@H](C)C(=O)N[C@@H](Cc1c[nH]c2ccccc12)C(=O)N[C@@H](CC(N)=O)C(=O)N[C@H](C(=O)N[C@H]1CSSC[C@@H](C(=O)N[C@@H](Cc2c[nH]cn2)C(=O)N[C@@H](CCCNC(=N)N)C(=O)N[C@@H](CCCNC(=N)N)C(=O)N[C@@H](C)C(=O)N[C@@H](CC(N)=O)C(N)=O)NC(=O)[C@H](C(C)C)NC(=O)[C@H](CCCNC(=N)N)NC(=O)[C@H](C(C)C)NC(=O)CNC(=O)[C@H](CC(N)=O)NC(=O)[C@H](CCCNC(=N)N)NC(=O)[C@H](Cc2ccc(O)cc2)NC(=O)[C@H](C(C)C)NC1=O)C(C)C)C(C)C | – | ICR mouse, blood | intramammary, 10 mg/kg, day 5, 3 d dosing | – | AST/ALT ratio | 0.61 ± 0.02
C[C@H]1COCCN1c1nc(NCc2cccnc2C(F)(F)F)c2cccnc2n1 | – | anaesthetized rat | intravenous, 3 mg/kg | baseline: control | PR change | 5.5%
COc1cc2c(Oc3ccc4[nH]c(C)cc4c3F)ccnc2cc1OCC1(N)CC1 | – | paediatric refractory sarcoma patients | 12 mg | – | AST elevation incidence | 54.5%
CC(C)n1c(C2CCNCC2)nc2c([N+](=O)[O-])c(Br)c(Br)cc21 | refers to: Anemia | AML patients | 125 mg | – | adverse events any grade | 31%
COc1cc(Nc2ncc(F)c(Nc3ccc4c(n3)NC(=O)C(C)(C)O4)n2)cc(OC)c1OC | – | HEPES buffer | 3 h, pH 7.4, 1% DMSO | – | solubility | 5.6 µM (≈ 2.63 µg/mL)
C[C@]1(CO)Cc2ncn(-c3ccc(C#N)c(Cl)c3)c2C(=O)O1 | – | human | oral, 10 mg, fed, single dose, geometric mean | – | AUC(0-inf) | 2.4 µM·h
C[C@@H]1[C@H](O)[C@@H](C)/C=C/C=C/CC/C=C/C=C/C=C/C=C/C(O[C@H]2O[C@H](C)[C@@H](O)[C@H](N)[C@@H]2O)CC2O[C@](O)(CC(O)C(O)CCC(O)CC(O)CC(O)CC(=O)O[C@H]1C)CC(O)C2C(=O)O (some centres unmarked) | – | mouse, bilateral renal I/R AKI | iv, 0.1 µmol/kg | baseline: untreated I/R mice | ALT and AST levels | increased

Excerpt of the above:
Compound | assay | test system | conditions | scale | quantity | value
CC(C)n1c(C2CCNCC2)nc2c([N+](=O)[O-])c(Br)c(Br)cc21 | refers to: Anemia | AML patients | 125 mg | – | adverse events any grade | 31%
O[C@H]1CCCN[C@@H]1CCCn1cnc2c(Cl)c(Cl)ccc21 | – | healthy CYP2D6 EM and UM, plasma | oral, 150 mg multiple doses | – | AUCtau | 887 ng·h/mL
